Assay results of several laboratories.
Each numbered part is a random draw from the data of one study; scales do not carry over between parts.
Sequence of UniProt Q13404 (whole entry, looked up): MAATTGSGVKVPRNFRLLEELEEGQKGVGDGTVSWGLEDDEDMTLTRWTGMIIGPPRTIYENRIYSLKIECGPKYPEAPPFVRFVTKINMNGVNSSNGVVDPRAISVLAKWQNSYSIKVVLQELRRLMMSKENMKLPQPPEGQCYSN
Sequence of UniProt P51813 (whole entry, looked up): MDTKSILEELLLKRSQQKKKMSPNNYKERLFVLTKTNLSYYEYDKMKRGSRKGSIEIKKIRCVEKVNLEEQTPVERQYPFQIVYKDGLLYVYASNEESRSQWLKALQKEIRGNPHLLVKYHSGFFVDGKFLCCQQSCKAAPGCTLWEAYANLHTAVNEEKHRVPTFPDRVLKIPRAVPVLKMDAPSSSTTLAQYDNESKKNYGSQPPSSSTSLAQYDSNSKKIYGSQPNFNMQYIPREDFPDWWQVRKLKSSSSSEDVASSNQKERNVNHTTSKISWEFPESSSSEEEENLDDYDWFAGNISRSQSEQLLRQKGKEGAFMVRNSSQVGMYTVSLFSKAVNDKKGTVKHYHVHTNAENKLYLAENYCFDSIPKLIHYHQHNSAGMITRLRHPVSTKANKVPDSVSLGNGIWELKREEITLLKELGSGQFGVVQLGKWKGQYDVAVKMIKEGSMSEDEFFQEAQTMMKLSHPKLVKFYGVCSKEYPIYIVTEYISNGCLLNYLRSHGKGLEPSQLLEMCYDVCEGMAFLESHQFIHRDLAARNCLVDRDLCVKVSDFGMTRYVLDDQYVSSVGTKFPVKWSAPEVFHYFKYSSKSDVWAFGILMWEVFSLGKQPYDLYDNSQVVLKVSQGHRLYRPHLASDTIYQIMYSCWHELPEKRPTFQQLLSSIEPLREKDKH
Sequence of UniProt Q5VVX9 (whole entry, looked up): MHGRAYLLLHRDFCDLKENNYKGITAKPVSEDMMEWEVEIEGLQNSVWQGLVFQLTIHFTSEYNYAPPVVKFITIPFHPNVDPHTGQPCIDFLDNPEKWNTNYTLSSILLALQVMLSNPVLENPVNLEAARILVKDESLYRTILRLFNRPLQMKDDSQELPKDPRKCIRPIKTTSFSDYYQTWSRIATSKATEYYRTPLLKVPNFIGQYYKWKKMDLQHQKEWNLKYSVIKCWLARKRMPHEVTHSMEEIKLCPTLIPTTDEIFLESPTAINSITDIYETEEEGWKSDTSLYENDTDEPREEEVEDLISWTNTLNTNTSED
Sequence of UniProt P07333 (whole entry, looked up): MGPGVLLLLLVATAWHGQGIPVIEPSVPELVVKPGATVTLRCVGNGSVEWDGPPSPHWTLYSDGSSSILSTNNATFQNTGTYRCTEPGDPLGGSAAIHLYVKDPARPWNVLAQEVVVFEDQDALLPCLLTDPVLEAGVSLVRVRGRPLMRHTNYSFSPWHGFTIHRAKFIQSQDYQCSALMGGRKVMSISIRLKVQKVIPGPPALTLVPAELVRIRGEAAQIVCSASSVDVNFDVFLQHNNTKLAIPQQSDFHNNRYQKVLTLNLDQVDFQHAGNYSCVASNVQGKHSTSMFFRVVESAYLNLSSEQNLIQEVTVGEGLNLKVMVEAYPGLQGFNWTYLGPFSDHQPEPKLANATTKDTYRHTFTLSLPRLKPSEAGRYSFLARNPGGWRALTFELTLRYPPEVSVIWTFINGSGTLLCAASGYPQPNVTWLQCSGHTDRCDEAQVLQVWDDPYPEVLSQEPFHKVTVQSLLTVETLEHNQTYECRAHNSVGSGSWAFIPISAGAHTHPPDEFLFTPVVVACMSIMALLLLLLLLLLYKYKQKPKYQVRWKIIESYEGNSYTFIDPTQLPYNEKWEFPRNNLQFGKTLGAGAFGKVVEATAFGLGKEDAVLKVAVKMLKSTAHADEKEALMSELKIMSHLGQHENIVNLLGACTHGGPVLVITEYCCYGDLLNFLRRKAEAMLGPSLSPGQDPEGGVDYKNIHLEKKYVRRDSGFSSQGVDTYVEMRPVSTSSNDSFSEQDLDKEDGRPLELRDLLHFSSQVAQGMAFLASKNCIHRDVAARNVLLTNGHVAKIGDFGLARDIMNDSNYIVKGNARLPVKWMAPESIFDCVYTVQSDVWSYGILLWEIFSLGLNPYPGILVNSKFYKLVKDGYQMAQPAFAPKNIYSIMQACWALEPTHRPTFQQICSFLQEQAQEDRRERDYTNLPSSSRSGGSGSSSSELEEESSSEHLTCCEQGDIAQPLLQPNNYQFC
Sequence of UniProt P50750 (whole entry, looked up): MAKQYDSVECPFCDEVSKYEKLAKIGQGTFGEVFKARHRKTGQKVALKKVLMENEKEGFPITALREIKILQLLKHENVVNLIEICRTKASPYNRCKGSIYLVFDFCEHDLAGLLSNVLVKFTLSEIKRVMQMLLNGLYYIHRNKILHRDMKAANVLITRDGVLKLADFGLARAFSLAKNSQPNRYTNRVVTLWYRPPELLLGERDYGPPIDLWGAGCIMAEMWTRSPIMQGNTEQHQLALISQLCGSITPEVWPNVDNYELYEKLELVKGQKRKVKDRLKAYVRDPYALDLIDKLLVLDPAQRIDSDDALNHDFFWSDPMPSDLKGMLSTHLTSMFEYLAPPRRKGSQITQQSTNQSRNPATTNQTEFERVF
Sequence of UniProt P10721 (whole entry, looked up): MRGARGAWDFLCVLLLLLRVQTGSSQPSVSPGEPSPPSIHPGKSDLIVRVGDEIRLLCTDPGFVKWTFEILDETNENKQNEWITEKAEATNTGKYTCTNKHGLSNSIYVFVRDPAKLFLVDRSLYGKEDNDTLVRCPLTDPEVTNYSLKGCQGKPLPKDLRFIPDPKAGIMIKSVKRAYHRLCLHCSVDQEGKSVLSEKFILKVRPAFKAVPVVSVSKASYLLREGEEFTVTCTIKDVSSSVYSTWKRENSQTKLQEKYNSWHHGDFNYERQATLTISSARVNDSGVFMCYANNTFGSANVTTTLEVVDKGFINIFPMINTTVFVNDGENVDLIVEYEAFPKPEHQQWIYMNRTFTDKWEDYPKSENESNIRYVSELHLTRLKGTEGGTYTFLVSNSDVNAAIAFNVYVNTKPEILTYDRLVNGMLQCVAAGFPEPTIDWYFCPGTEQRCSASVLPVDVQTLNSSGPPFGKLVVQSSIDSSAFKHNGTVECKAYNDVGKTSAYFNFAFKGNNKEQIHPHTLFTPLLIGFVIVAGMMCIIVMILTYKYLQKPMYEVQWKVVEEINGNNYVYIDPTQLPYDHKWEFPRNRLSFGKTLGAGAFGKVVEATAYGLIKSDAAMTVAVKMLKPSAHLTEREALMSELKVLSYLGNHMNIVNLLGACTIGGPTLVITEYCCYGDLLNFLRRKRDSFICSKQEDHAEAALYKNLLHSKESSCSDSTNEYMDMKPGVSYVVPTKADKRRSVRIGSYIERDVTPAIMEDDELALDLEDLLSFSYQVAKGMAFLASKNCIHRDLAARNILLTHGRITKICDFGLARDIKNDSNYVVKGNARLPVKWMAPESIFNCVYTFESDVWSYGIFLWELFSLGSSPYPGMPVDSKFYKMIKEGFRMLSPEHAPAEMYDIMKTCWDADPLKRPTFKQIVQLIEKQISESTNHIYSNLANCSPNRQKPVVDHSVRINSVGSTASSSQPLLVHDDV
Sequence of UniProt P48729 (whole entry, looked up): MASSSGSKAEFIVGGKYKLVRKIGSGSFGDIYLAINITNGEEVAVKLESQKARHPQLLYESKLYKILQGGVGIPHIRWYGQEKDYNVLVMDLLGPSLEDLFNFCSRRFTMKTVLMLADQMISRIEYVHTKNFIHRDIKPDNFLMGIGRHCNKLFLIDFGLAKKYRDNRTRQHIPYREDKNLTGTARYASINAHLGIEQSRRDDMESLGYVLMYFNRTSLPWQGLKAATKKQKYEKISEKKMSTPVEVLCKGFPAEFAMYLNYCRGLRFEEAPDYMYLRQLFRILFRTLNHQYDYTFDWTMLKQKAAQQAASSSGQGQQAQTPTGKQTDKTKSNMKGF
Sequence of UniProt Q16659 (whole entry, looked up): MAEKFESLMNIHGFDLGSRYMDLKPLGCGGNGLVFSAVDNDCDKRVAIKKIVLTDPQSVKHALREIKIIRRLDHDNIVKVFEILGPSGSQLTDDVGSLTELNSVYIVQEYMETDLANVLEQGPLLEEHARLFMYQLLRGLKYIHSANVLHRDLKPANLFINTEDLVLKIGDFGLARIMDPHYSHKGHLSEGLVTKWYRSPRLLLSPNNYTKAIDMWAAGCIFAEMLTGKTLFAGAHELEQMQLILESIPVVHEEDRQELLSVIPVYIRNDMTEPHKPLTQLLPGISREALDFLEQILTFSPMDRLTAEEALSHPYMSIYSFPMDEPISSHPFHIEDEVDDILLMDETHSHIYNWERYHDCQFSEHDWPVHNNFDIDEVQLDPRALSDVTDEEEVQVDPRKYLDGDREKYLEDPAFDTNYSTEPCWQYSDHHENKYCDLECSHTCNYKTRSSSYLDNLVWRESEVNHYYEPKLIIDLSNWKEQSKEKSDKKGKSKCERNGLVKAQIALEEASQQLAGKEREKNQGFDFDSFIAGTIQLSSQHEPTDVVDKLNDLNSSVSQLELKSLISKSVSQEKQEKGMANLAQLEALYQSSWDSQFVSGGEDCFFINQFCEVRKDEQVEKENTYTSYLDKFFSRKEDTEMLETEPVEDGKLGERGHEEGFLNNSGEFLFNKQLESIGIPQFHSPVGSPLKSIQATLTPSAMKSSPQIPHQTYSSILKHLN
Sequence of UniProt Q13043 (whole entry, looked up): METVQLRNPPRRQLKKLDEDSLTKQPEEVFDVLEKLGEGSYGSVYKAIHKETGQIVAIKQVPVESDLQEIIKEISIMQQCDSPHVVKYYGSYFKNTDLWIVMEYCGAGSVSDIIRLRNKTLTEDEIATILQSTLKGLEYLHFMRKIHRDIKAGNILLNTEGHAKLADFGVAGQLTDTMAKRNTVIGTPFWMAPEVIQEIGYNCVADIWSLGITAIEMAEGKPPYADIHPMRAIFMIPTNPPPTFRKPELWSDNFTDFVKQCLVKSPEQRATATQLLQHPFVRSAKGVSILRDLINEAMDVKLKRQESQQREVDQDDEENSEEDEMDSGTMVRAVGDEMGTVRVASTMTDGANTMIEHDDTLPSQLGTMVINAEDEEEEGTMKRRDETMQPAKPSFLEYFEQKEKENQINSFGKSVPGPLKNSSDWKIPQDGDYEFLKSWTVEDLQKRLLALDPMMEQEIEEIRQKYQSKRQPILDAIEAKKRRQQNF

Set 1
Structure (SMILES): Cc1nc(Cc2cccc(C(F)(F)F)c2)sc1-c1ccc(C(N)=O)nc1
Method: competition with immobilised ligand
Concentration: 1 µM
For Tyrosine-protein kinase ABL1, non-phosphorylated (ABL1, Homo sapiens, UniProt P00519, T315I); cell-free assay: remaining binding read 100%.
For EPHA2 (Homo sapiens, UniProt P29317); cell-free assay: remaining binding read 68%.
The remaining binding was 98% (MERTK (Homo sapiens, UniProt Q12866); cell-free assay).
For CDK9 (Homo sapiens, UniProt P50750); cell-free assay: remaining binding read 100%.
For CSNK1A1 (Homo sapiens, UniProt P48729); cell-free assay: remaining binding read 99%.
It gave 92% for remaining binding (HIPK1 (Homo sapiens, UniProt Q86Z02); cell-free assay).
It gave 100% for remaining binding (STK4 (Homo sapiens, UniProt Q13043); cell-free assay).
It gave 95% for remaining binding (KIT (Homo sapiens, UniProt P10721); cell-free assay).
For SRPK3 (Homo sapiens, UniProt Q9UPE1); cell-free assay: remaining binding read 100%.
The remaining binding was 100% (IGF1R (Homo sapiens, UniProt P08069); cell-free assay).
The remaining binding was 100% (MAPK6 (Homo sapiens, UniProt Q16659); cell-free assay).
For TAOK1 (Homo sapiens, UniProt Q7L7X3); cell-free assay: remaining binding read 81%.
For EGFR (Homo sapiens, UniProt P00533, del752-759); cell-free assay: remaining binding read 100%.
It gave 100% for remaining binding (CDKL3 (Homo sapiens, UniProt Q8IVW4); binding).
EGFR (Homo sapiens, UniProt P00533, G719S); cell-free assay — remaining binding: 67%.
BMX (Homo sapiens, UniProt P51813); cell-free assay — remaining binding: 59%.
It gave 85% for remaining binding (CSF1R (Homo sapiens, UniProt P07333); cell-free assay).
PIK3CA (Homo sapiens, UniProt P42336, H1047L); cell-free assay — remaining binding: 72%.
The remaining binding was 100% (MATK (Homo sapiens, UniProt P42679); cell-free assay).
The remaining binding was 100% (PIK3CD (Homo sapiens, UniProt O00329); cell-free assay).
The remaining binding was 100% (DCLK3 (Homo sapiens, UniProt Q9C098); cell-free assay).

Set 2
Molecule: KTLSRFGIQPCSICLGDAKDPVCLPCDHVHCLRCLRAWFASEQMICPYCLTALPDEFSPA (RNF213 RING domain (UniProt Q63HN8))
Method: yeast two-hybrid
Medium: yeast
Notes: mostly zero background
Baseline: not given
Reading: higher = stronger interaction
UBE2E2 UBC core domain (UniProt Q96LR5) — “lacZ reporter activity”: 0.
UBE2H UBC core domain (UniProt P62256) — “lacZ reporter activity”: 0.
The “lacZ reporter activity” was 0 (UBE2E1 UBC core domain (UniProt P51965)).
The “lacZ reporter activity” was 0 (UBE2U UBC core domain (UniProt Q5VVX9)).
For UBE2V2 UBC core domain (UniProt Q15819): “lacZ reporter activity” read 0.
UBE2V1 UBC core domain (UniProt Q13404) — “lacZ reporter activity”: 0.

Set 3
Target: Phosphate system positive regulatory protein PHO4, full length, GST-tagged (PHO4, Saccharomyces cerevisiae, UniProt P07270, residues 1-312)
Method: competition protein-binding microarray
Molecule type: double-stranded DNA, one strand shown
Medium: in vitro
Concentration: 2 µM
Notes: whole 60-bp probe, lowest competitor level
With: Cbf1 competitor, 0.05 µM
Reading: higher = stronger binding
Residues (chain): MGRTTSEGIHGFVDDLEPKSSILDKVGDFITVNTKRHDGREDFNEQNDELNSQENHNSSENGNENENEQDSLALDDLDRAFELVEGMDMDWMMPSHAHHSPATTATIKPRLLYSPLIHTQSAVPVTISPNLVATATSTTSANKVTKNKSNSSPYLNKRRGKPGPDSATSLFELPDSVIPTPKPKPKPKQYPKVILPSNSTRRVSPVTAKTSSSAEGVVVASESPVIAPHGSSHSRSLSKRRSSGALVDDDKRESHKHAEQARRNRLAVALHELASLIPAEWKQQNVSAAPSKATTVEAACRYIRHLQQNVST
`AAATTACTAAGTTTTCACGTGCGCTACCCCGTATGAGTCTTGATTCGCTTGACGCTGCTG` gave a fluorescence intensity of 17100 a.u.
`CCCTCCCTTCTCTGCTCCGTGATGGCCATTTCAACCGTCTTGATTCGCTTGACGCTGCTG` gave a fluorescence intensity of 4800 a.u.
The fluorescence intensity of `CGGAAGACGTAGTGGCAGGTGAGGCGGCGAGTTCAGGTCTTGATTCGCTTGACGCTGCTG` is reported as 4290 a.u.
With `CTTTCCCGATCTTGATACGTGGGTGTAGCACATTTGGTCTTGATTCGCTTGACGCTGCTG` the fluorescence intensity was 7670 a.u.
The fluorescence intensity of `AAATTACTAAGTTGGGCGGTGGGTGACGCCGTATGAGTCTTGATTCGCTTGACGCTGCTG` is reported as 4520 a.u.
The fluorescence intensity of `ATTGCTGCTTGCAGCTGCGTGCAAATTTCCATAATCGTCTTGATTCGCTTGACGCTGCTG` is reported as 7440 a.u.
With `AGTAGCGGCTGCCGTCACGCACCATGGGTACCATCTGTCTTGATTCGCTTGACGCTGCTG` the fluorescence intensity was 6410 a.u.
`AAATTACTAAGTTTTCACGTGCATTACCCCGTATGAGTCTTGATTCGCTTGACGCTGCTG` has a fluorescence intensity of 16100 a.u.

Set 4
Target: TAR DNA-binding protein 43, full length, His tag (TARDBP, Homo sapiens, UniProt Q13148, residues 1-414)
Method: RNA Bind-n-Seq
Molecule type: RNA
Medium: in vitro
Concentration: 20 nM
Notes: 6-mer, flanks averaged, single round
With: 150 mM LiCl
Baseline: input library
Reading: higher = stronger binding
`AGAGUU`: “6-mer enrichment (R)” 0.943.
For `UAUAUC`, “6-mer enrichment (R)” read 0.901.
For `AAUAUG`, “6-mer enrichment (R)” read 0.992.
`ACCGGA`: “6-mer enrichment (R)” 0.851.
For `GUAGAG`, “6-mer enrichment (R)” read 1.16.
`AUAUCA` — result for “6-mer enrichment (R)”: 0.851.
`AUAACC`: “6-mer enrichment (R)” 0.866.
Under “6-mer enrichment (R)”, `CUCUCC` is recorded as 0.975.

Single results of other studies
CCCc1c(C(=O)NC2CC2)nnn1-c1ccc(NC(=O)CC(F)(F)F)cc1 gave a remaining compound of 51.9% (mouse, microsomes or S9; 2 µM, 0.5 h).
The inhibition of CC(C)n1c(/C=C/C(O)CC(O)CC(=O)O)c(-c2ccc(F)cc2)c2ccccc21 (centres unmarked) is reported as -21.6% (Sarcocystis neurona; parasite growth; 10 µM).
The remaining compound of CC(=O)OCCNc1cnc(Cl)cc1Cn1c(C(=O)c2cc(C)cc(C)c2)c(C(C)C)c(=O)[nH]c1=O is reported as 0.212% (mouse, microsomes or S9; 2 µM, 0.5 h).
With CC(C)NCC(O)COc1ccc(CC(N)=O)cc1 (centres unmarked) the inhibition was 28% (Sarcocystis neurona; parasite growth; 10 µM).

Excerpt of the above (set 4):
`AUAUCA` — result for “6-mer enrichment (R)”: 0.851.
For `GUAGAG`, “6-mer enrichment (R)” read 1.16.
For `AAUAUG`, “6-mer enrichment (R)” read 0.992.
`ACCGGA`: “6-mer enrichment (R)” 0.851.
`AUAACC`: “6-mer enrichment (R)” 0.866.
For `UAUAUC`, “6-mer enrichment (R)” read 0.901.
Under “6-mer enrichment (R)”, `CUCUCC` is recorded as 0.975.
`AGAGUU`: “6-mer enrichment (R)” 0.943.
